Literature values as cited in several papers.
Each numbered part shows a few of the values that one paper quotes. Numbers after ± are the reported error.
UniProt P35968, sequence (whole entry, looked up): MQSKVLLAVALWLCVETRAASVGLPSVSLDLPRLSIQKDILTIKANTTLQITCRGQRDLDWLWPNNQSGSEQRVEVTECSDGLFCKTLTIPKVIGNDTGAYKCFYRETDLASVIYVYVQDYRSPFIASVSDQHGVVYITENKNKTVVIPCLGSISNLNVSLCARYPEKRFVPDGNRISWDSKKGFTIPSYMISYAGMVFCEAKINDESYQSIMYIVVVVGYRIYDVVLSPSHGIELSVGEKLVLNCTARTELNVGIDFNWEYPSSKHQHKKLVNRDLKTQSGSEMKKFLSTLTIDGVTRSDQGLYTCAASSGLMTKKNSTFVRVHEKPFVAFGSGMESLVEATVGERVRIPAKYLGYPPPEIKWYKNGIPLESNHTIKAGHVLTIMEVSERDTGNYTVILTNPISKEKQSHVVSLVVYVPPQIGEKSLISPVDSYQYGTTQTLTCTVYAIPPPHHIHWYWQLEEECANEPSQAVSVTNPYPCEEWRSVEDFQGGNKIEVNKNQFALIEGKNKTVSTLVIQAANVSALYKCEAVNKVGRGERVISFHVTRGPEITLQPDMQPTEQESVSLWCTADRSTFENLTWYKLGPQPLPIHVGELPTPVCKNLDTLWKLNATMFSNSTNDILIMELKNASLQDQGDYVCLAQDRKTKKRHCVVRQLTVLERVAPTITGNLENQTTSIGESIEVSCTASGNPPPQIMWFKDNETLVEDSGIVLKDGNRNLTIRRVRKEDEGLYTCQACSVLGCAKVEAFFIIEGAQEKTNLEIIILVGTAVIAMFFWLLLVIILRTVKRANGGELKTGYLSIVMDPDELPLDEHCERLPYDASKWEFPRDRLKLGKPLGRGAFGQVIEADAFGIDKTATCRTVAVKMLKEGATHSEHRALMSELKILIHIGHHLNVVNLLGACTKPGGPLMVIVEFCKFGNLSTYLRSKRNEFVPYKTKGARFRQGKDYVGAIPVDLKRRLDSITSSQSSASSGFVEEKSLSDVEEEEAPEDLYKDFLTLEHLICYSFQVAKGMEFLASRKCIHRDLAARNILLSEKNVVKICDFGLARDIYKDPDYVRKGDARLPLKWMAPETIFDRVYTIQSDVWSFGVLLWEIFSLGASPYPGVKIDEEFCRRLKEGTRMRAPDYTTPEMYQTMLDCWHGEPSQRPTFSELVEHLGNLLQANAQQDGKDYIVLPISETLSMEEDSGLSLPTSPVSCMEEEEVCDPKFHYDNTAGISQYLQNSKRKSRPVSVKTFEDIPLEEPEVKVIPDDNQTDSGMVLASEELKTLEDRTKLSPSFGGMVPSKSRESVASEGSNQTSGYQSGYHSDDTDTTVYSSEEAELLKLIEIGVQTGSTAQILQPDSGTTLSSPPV

Series 1
Target: dopamine transporter
`CCC(C)n1ncn(-c2ccc(N3CCN(c4ccc(OCC5COC(Cn6cncn6)(c6ccc(Cl)cc6Cl)O5)cc4)CC3)cc2)c1=O` (centres unmarked) gave an IC50 of greater than 10 µM.
For `Cc1[nH]cnc1CN1CCc2c(c3ccccc3n2C)C1=O`, the IC50 was greater than 10 µM.
`C[C@@H]1C[C@H]2[C@@H]3CCC4=CC(=O)C=C[C@]4(C)[C@@]3(F)[C@@H](O)C[C@]2(C)[C@@]1(O)C(=O)CO` has an IC50 of greater than 10 µM.

Series 2
Organism: Cryptosporidium parvum
Method: high-throughput screen
Tested at: concentration not given
Under activity, `Nc1nc(Cl)nc2c1ncn2[C@H]1C[C@H](O)[C@@H](CO)O1` is recorded as “inactive”.
Under activity, `CC(C)(C)NC(=O)[C@H]1CC[C@H]2[C@@H]3CC[C@H]4NC(=O)C=C[C@]4(C)[C@H]3CC[C@]12C` is recorded as “inactive”.
`Cl.Cn1c(NCCN(CCO)CCCc2ccc([N+](=O)[O-])cc2)cc(=O)n(C)c1=O`: activity “inactive”.
For `CC(=O)S[C@@H]1CC2=CC(=O)CC[C@]2(C)[C@H]2CC[C@@]3(C)[C@@H](CC[C@@]34CCC(=O)O4)[C@H]12`, activity read “inactive”.
For `CN(C)CCOC(c1ccccc1)c1ccccc1`, activity read “inactive”.
`COC(=O)C1=C(C)NC(C)=C(C(=O)O[C@@H]2CCCN(Cc3ccccc3)C2)[C@@H]1c1cccc([N+](=O)[O-])c1.Cl` (racemic): activity “inactive”.
`C[C@H](CCC(=O)O)[C@H]1CC[C@H]2[C@@H]3[C@@H](O)C[C@@H]4C[C@H](O)CC[C@]4(C)[C@H]3CC[C@]12C`: activity “inactive”.
Under activity, `CC(=O)OCC(=O)[C@@]12OC3(CCCC3)O[C@@H]1C[C@H]1[C@@H]3CCC4=CC(=O)C=C[C@]4(C)[C@@]3(F)[C@@H](O)C[C@@]12C` is recorded as “inactive”.
Under activity, `CCOC(=O)CCC(=O)O[C@H]1[C@H](O[C@@H]2[C@@H](C)[C@H](O[C@H]3C[C@@](C)(OC)[C@@H](O)[C@H](C)O3)[C@@H](C)C(=O)O[C@H](CC)[C@@](C)(O)[C@H](O)[C@@H](C)C(=O)[C@H](C)C[C@@]2(C)O)O[C@H](C)C[C@@H]1N(C)C` is recorded as “inactive”.
`CC(=O)CCCCn1c(=O)c2c(ncn2C)n(C)c1=O`: activity “inactive”.
Under activity, `C#C[C@]1(OC(C)=O)CC[C@H]2[C@@H]3CCC4=CC(=O)CC[C@@H]4[C@H]3CC[C@@]21C` is recorded as “inactive”.
`CN(C)[C@@H]1C(O)=C(C(N)=O)C(=O)[C@@]2(O)C(O)=C3C(=O)c4c(O)cccc4[C@@](C)(O)[C@H]3C[C@@H]12` — result for activity: “inactive”.
`O=c1[nH]cnc2c1ncn2[C@H]1CC[C@@H](CO)O1`: activity “inactive”.
For `CCN1CCC[C@H]1CNC(=O)c1c(O)c(Cl)cc(Cl)c1OC`, activity read “inactive”.
`CC(C(=O)O)c1ccc(CC2CCCC2=O)cc1` (centres unmarked) — result for activity: “inactive”.
`CC1=C(/C=C/C(C)=C/C=C/C(C)=C\C(=O)O)C(C)(C)CCC1`: activity “inactive”.
Under activity, `CC(C)NCC(O)COc1cccc2[nH]ccc12` (centres unmarked) is recorded as “inactive”.
Under activity, `CCOC(=O)C1=C(C)NC(C)=C(C(=O)OC)C1c1cccc(Cl)c1Cl` (centres unmarked) is recorded as “inactive”.
Under activity, `CCOC(=O)[C@H](CCc1ccccc1)N[C@@H](C)C(=O)N1Cc2ccccc2C[C@H]1C(=O)O` is recorded as “inactive”.
`NC(=O)N1c2ccccc2CC(=O)c2ccccc21`: activity “inactive”.
`CCCN[C@H]1CCc2nc(N)sc2C1.Cl` — result for activity: “inactive”.
Under activity, `CC(C)NCC(O)COc1ccc(COCCOC(C)C)cc1` (centres unmarked) is recorded as “inactive”.
`CS(=O)(=O)O.O=C(O[C@H]1C[C@H]2CC3C[C@@H](C1)N2CC3=O)c1c[nH]c2ccccc12`: activity “inactive”.
`Nc1ccc(S(=O)(=O)c2ccc(N)cc2)cc1` — result for activity: “inactive”.
Under activity, `CN(C)CCC=C1c2ccccc2COc2ccccc21` is recorded as “inactive”.

Single results of other studies
With `CC(C)(c1ccc(O)cc1)c1ccc(O)cc1` the half-life was 4.9 h (mouse; 100 mg/kg).
For `O=c1ncccn1[C@@H]1O[C@H](CO)[C@@H](O)[C@H]1O`, the IC20 was 10 µM (Jurkat).
`N#CN1CC[C@H](C(=O)Nc2nc3c(s2)CN(C(=O)CN=[N+]=[N-])CC3)C1` has an IC50 of 0.32 µM (UCHL1; biochemical activity).
With `CC(=O)c1ccc(-c2cccc(NC(=O)CCc3cccc4c3B(O)OC4)c2)cc1` the IC50 was 0.021 µM (ovarian cancer cell line; cell proliferation).
`CO[C@]1(C(=O)N[C@@H](C)c2ccc(-n3cc(F)cn3)nc2)CC[C@H](c2nc(C)cc(Nc3cc(C)[nH]n3)n2)CC1` has a Ki of 0.016 µM (KDR (Homo sapiens, UniProt P35968); not stated).
For `Cc1nn(C)cc1S(=O)(=O)NC(=O)c1ccc(-n2ccc(OCC(C)(C)C(F)(F)F)n2)nc1N1C[C@@H](C)CC1(C)C`, “gut wall elimination, fraction escaping” read 1 (human).
For `COc1ccc(N2CCN(Cc3cn4c(-c5ccc(Br)cc5)nnc4s3)CC2)cc1`, the half-life was roughly 8 h (mouse).
Under “gut wall elimination, fraction escaping”, `CC(C)(C)c1cc(C(C)(C)C)c(NC(=O)c2c[nH]c3ccccc3c2=O)cc1O` is recorded as 0.5 (human).
`C=C(C)[C@@H]1CC[C@]2(CO)CC[C@]3(C)[C@H](CC[C@@H]4[C@@]5(C)CC[C@H](O)[C@@](C)(COC(=O)/C=C/c6ccc(O)cc6)[C@@H]5CC[C@]43C)[C@@H]12`: antiplasmodial activity “active” (Plasmodium falciparum; Dd2; concentration not given).
For `COc1ccc(C[C@H](N)C(=O)N[C@H]2[C@@H](O)[C@H](n3cnc4c(N(C)C)ncnc43)O[C@@H]2CO)cc1`, the CC50 was 2.76 ± 0.16 µM (Vero; MTT).
`O=C([O-])CN1CCN(CC(=O)[O-])CCN([C@H](CO)[C@H](O)CO)CCN(CC(=O)[O-])CC1.[Gd+3]` (racemic) has a half-life of 1.78 ± 0.43 h (0.1 mmol/kg).
`O=C(O)CNC(=O)C(CS)Cc1ccccc1` (centres unmarked) gave a CC50 of greater than 100 µM (Vero; MTT).
For `Cc1cc(C)c(-n2ccn3nc(-c4cccnc4)cc23)cc1NC(=O)c1cc(C#N)cc(S(F)(F)(F)(F)F)c1`, the Kd was 0.025 µM (EPHB6; KINOMEscan).
For `C=C(C)[C@@H]1CC[C@]2(CO)CC[C@]3(C)[C@H](CC[C@@H]4[C@@]5(C)CC[C@H](OC(=O)/C=C/c6ccc(O)cc6)[C@@](C)(CO)[C@@H]5CC[C@]43C)[C@@H]12`, antiplasmodial activity read “active” (Plasmodium falciparum; Dd2; concentration not given).
`C[C@]1(c2nc3c(C(N)=O)cccc3[nH]2)CCCN1` — result for activity: “inactive” (SIRT2; concentration not given, vendor information).
For `CN(C)CC/C=C1/c2ccccc2Sc2ccc(Cl)cc21`, “log2 fold change” read 1.1 (MCF7; microarray, refers to: UPP1 mRNA; concentration not given; relative to: DMSO).
`N=C(N)NCCC[C@H](N)C(=O)O` has a Kd of roughly 200 µM (UBR-box; binding).
`CCCCCCCCNC(C)C(O)c1ccc(SC(C)C)cc1` (centres unmarked) — result for “log2 fold change”: 1.11 (MCF7; microarray, refers to: SLC38A7 mRNA; concentration not given; relative to: DMSO).
`CCc1c(Cl)c(O)c(Cl)c(O)c1C(=O)O[C@H]1[C@H](O)[C@H](OC)[C@H](OC/C2=C\C=C\C[C@H](O)/C(C)=C/[C@H](CC)[C@@H](O[C@@H]3OC(C)(C)[C@@H](OC(=O)C(C)C)[C@H](O)[C@@H]3O)/C(C)=C/C(C)=C/C[C@@H]([C@@H](C)O)OC2=O)O[C@@H]1C` gave an MIC of greater than 128 µg/mL (Pseudomonas aeruginosa; ATCC 27853).
`Oc1ccc(C(c2ccc(O)cc2)(C(F)(F)F)C(F)(F)F)cc1` has a dose-normalized Cmax of 3.1 (nmol/mL)/(mmol/kg) (B6C3F1/N mouse, female; oral gavage, 34 mg/kg).
`O=C(CCC(C(=O)[O-])N1CCN(C(CCC(=O)NCC(O)CO)C(=O)[O-])Cc2cccc(n2)CN(C(CCC(=O)NCC(O)CO)C(=O)[O-])CC1)NCC(O)CO.[Gd+3]` (centres unmarked) has a half-life of 1.73 ± 0.26 h (0.1 mmol/kg).
`Oc1ccc(-c2nc(-c3ccc(OC4CCCC4)cc3)no2)cc1` gave an MIC of greater than 128 µg/mL (Lactobacillus sp.; HM-102).
